# Published values of several laboratories.
# Numbered parts are unrelated; each lists some results of a single study. “And” joins repeats or separate records; there may be more than shown. pEC50, pIC50: −log10 of the molar value.
# Chain of UniProt Q02763 (whole entry, looked up): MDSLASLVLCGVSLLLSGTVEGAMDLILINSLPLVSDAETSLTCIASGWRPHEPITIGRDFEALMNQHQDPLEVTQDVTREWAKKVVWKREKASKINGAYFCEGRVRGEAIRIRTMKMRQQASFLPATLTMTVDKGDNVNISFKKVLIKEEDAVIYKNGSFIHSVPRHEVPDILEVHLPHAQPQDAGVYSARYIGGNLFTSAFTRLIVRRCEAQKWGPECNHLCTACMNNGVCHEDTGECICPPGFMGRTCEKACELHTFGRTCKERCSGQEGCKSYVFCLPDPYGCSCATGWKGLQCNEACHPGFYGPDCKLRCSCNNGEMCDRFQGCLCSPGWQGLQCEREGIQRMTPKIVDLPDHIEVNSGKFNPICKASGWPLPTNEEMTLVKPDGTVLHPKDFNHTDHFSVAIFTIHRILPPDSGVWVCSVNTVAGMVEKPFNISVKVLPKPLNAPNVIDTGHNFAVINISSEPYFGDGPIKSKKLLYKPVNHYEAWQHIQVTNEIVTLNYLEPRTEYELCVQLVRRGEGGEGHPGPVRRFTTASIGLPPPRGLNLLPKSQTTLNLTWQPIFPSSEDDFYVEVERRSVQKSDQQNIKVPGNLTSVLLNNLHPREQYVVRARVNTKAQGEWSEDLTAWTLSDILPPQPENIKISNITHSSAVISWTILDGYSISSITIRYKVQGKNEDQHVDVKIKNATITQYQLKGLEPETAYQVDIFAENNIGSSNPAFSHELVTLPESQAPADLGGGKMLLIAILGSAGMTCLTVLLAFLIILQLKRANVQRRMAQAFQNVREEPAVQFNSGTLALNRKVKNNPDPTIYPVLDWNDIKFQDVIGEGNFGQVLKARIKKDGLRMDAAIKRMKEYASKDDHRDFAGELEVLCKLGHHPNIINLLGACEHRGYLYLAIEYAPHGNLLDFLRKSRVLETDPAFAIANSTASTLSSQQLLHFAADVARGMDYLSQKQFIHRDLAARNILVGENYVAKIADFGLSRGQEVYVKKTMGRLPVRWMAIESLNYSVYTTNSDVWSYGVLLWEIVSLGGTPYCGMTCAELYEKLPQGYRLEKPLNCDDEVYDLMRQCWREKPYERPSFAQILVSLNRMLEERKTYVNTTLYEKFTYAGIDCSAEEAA
# Chain of UniProt P35590 (whole entry, looked up): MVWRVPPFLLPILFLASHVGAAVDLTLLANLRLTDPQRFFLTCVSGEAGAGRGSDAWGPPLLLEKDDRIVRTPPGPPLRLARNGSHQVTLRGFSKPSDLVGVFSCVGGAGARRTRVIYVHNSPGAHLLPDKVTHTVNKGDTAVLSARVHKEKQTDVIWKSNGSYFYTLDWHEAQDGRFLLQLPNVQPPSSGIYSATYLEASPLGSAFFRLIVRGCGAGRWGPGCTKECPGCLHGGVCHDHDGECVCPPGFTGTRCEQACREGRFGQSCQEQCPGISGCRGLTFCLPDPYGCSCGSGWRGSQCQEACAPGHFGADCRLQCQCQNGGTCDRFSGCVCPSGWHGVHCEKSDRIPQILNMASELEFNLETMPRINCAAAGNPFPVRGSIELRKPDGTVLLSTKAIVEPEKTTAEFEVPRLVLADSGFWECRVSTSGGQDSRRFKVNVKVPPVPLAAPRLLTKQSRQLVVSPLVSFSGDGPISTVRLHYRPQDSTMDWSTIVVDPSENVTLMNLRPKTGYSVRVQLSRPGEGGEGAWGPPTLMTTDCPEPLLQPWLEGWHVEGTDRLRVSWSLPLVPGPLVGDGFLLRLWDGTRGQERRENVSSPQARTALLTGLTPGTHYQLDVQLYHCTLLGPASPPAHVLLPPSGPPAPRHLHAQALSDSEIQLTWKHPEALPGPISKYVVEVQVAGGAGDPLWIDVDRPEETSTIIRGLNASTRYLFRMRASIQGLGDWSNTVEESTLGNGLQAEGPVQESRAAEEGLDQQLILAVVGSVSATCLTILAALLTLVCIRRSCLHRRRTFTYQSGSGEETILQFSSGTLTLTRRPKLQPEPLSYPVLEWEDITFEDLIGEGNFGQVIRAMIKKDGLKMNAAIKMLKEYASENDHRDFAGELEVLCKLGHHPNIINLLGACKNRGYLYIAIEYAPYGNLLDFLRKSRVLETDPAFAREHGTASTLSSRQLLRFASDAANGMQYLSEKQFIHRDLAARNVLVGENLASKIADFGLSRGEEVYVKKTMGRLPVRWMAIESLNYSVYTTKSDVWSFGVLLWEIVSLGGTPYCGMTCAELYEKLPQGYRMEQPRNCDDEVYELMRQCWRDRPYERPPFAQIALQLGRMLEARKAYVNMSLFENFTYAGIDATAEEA
# Chain of UniProt Q16832 (whole entry, looked up): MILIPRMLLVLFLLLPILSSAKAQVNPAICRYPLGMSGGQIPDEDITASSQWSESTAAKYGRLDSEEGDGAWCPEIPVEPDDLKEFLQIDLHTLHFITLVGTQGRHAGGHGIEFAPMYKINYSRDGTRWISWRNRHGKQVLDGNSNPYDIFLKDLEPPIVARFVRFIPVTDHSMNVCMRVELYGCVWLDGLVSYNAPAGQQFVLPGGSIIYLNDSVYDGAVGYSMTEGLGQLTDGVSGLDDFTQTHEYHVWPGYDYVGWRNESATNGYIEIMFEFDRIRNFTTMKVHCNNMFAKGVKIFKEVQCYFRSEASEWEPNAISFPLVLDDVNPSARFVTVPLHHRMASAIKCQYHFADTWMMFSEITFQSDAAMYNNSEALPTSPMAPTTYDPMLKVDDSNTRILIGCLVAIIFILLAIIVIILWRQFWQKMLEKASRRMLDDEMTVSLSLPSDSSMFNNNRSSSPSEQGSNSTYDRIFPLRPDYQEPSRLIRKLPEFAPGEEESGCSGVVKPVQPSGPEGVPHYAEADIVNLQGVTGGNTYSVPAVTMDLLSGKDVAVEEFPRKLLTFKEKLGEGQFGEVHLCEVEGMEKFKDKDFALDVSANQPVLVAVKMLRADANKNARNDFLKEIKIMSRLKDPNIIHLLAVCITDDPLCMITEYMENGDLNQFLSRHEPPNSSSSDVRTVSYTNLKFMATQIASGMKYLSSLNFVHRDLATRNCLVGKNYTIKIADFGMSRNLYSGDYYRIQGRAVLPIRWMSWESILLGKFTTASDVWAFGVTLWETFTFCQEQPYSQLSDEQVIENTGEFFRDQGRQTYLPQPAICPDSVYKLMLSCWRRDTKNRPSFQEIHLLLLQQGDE
# Chain of UniProt P10398 (whole entry, looked up): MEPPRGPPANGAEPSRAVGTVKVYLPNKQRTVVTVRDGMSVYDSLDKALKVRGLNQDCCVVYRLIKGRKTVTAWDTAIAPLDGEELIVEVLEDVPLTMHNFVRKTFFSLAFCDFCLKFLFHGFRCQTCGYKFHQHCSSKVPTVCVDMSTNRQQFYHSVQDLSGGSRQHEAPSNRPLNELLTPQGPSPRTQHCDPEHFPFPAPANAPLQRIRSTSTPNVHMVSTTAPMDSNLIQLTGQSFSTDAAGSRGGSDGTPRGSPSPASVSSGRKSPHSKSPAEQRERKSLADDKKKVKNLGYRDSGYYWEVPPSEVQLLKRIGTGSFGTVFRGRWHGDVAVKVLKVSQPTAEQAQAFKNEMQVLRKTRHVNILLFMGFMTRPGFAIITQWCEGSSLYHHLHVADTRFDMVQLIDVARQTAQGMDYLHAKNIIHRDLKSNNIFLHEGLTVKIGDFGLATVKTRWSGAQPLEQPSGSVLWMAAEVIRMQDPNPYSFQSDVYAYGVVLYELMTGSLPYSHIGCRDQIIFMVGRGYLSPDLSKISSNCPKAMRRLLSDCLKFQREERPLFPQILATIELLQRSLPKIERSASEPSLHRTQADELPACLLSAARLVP
# Chain of UniProt P07948 (whole entry, looked up): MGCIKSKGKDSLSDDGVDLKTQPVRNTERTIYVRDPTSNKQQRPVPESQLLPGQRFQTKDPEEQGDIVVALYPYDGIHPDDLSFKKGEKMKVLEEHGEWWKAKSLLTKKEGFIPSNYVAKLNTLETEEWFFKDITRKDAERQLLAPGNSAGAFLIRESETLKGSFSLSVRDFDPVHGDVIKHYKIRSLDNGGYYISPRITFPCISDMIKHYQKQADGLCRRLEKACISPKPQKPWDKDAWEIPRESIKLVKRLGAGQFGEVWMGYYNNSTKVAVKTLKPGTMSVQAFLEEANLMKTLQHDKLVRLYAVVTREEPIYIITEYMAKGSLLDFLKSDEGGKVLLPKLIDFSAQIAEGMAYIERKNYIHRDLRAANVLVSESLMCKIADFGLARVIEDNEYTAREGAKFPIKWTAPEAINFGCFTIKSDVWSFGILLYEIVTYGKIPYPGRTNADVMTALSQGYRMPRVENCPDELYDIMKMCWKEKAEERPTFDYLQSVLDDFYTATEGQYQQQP

# Study 1 — read-out: target engagement; method: NanoBRET; medium: live cells
# Structure (SMILES): Cc1cc(NC(=O)c2cccc(S(F)(F)(F)(F)F)c2)cc(-n2ccn3nc(-c4cccnc4)cc23)c1
target,pEC50
"LYN (Homo sapiens, UniProt P07948)",< 4.30
"TIE1 (Homo sapiens, UniProt P35590)",5.53 and 5.46 and 5.90
"DDR2 (Homo sapiens, UniProt Q16832)",5.96 and 5.25 and 5.84
"TEK (Homo sapiens, UniProt Q02763)",5.40 and 5.47 and 5.59

# Study 2 — action: antagonist
# Target: Beta-1 adrenergic receptor (ADRB1, Homo sapiens, UniProt P08588)
# Chain of UniProt P08588 (whole entry, looked up): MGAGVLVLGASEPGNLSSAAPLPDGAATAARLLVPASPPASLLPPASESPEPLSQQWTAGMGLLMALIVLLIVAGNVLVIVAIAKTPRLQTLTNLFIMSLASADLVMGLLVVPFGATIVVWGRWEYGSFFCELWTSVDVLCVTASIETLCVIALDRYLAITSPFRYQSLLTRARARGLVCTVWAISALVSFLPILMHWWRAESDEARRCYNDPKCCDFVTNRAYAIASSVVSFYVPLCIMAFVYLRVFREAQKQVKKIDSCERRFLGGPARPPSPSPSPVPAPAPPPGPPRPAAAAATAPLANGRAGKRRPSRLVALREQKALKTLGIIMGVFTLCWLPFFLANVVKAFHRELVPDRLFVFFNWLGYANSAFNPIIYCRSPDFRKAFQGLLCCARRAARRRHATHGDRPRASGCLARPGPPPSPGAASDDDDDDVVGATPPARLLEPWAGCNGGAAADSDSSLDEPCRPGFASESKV
SMILES,pIC50
COc1ccc2[nH]cc(C3=CCN(CC(=O)N(C)Cc4ccccc4)CC3)c2c1,≤ 4.00
CN1CCN(c2ccc3ccccc3n2)CC1,≤ 4.00
C[C@H](Cc1ccc(OCC(=O)O)cc1)NC[C@H](O)c1cccc(Cl)c1,≤ 4.00
CN(C)CCc1ccc(O)cc1,≤ 4.00

# Study 3 — organism: Cryptosporidium parvum; species: neonatal calves; dose: dose not given; reading: direction not given
# Structure (SMILES): CNC(=O)c1ccc(-c2cnn3ccc(C(=O)N(C)c4ccc(Cl)c(C(=O)OC)c4)cc23)cc1
time,fecal consistency score
day 14 post-treatment,1
day 0 post-treatment,3 and 2
day 7 post-treatment,1 and 2
day 9 post-treatment,1 and 2

# Further values, each from its own experiment
Compound,target,read-out,method,cells,quantity,result
CC(C)(C)c1nc(-c2cccc(NS(=O)(=O)c3c(F)cccc3F)c2F)c(-c2ccnc(N)n2)s1,"Serine/threonine-protein kinase A-Raf (ARAF, Homo sapiens, UniProt P10398)",HSP90 interaction,LUMIER,human cells,pEC50,6.92

# Some of these lines once more (further values, each from its own experiment):
Compound,target,read-out,method,cells,quantity,result
CC(C)(C)c1nc(-c2cccc(NS(=O)(=O)c3c(F)cccc3F)c2F)c(-c2ccnc(N)n2)s1,"Serine/threonine-protein kinase A-Raf (ARAF, Homo sapiens, UniProt P10398)",HSP90 interaction,LUMIER,human cells,pEC50,6.92
